{"data": "Experimental data pooled from the literature", "note": "Every numbered part comes from another study and shows a few of its results, in no order."}
{"data": "Block 1", "target": "Interferon regulatory factor 3, full length, phosphomimetic (IRF3, Homo sapiens, UniProt Q14653, residues 1-427, S386D/S396D/S398D/S402D/T404D/S405D)", "technique": "protein-binding microarray", "form": "double-stranded DNA, one strand shown", "medium": "in vitro", "tested at": "2540 nM top", "notes": "60-bp whole probe", "together with": "salmon DNA 0.4 mg/ml", "baseline": "random background probes", "direction": "higher = stronger binding", "all sequences stand within": "GCCTAGCAC … GTCTTGATTCGCTTGACGCTGCTG", "Residues (chain)": "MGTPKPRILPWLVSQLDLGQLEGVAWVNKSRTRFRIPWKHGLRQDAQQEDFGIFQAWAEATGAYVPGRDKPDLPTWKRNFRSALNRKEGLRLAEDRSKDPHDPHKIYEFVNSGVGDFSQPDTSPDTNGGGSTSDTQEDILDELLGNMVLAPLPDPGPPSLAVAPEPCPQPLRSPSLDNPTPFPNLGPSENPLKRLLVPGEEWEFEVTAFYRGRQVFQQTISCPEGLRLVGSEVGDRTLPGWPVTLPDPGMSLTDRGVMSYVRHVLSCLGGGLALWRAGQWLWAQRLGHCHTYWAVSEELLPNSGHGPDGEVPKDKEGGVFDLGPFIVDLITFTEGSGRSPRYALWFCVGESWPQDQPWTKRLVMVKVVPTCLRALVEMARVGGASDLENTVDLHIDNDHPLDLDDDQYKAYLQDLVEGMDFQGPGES"}
{"Sequence": "TTAGGTATCGGGTTACGGTTAGTGCTA", "fitted relative affinity": "2.02 z-score"}
{"Sequence": "GACGGTTTCGACTATCGGTACGTGCTA", "fitted relative affinity": "3.07 z-score"}
{"Sequence": "TCAGCTTCCTCTTTTTTACTGTGCTAG", "fitted relative affinity": "0.929 z-score"}
{"Sequence": "TTAGGTCTCCTTTTCCTCTAGTGCTAG", "fitted relative affinity": "5.02 z-score"}
{"Sequence": "GACGATTTCGGGTTTCGCGACGTGCTA", "fitted relative affinity": "2.5 z-score"}
{"Sequence": "GATTCTCCTGCCTCAGCCTCGTGCTAG", "fitted relative affinity": "1.28 z-score"}
{"Sequence": "TGGGCTCTAGGTTCTCTGAAGGTGCTA", "fitted relative affinity": "-1.17 z-score"}
{"Sequence": "TCAGTTCTGATCCTTCCCACTGTGCTA", "fitted relative affinity": "1.56 z-score"}
{"Sequence": "TCACTTCTGGGCTGTTTAACTGTGCTA", "fitted relative affinity": "1.01 z-score"}
{"Sequence": "GACGAACTGAGGCTGGAGACGTGCTAG", "fitted relative affinity": "-0.577 z-score"}
{"Sequence": "TTAGGTTCCCTTTTCTTTTAGTGCTAG", "fitted relative affinity": "8.01 z-score"}
{"Sequence": "CTCCTTCTCTAACCTCTCTAAGTGCTA", "fitted relative affinity": "2.31 z-score"}
{"Sequence": "CTCCAACAAGGCTATCCCTCGTGCTAG", "fitted relative affinity": "-0.541 z-score"}
{"Sequence": "GACGGTTTCGGGTATCGGCACGTGCTA", "fitted relative affinity": "4.28 z-score"}
{"Sequence": "TAAGGTCTCCTACTGCTTTAGTGCTAG", "fitted relative affinity": "0.516 z-score"}
{"data": "Block 2", "target": "RNA binding protein fox-1 homolog 2, RRM domain, GST-SBP tag (RBFOX2, Homo sapiens, UniProt O43251-10, residues 100-194)", "technique": "RNA Bind-n-Seq", "form": "RNA", "medium": "in vitro", "tested at": "365 nM", "notes": "natural RNA segment, single round, ends assumed", "baseline": "no-protein control", "direction": "higher = stronger binding", "Construct (chain)": "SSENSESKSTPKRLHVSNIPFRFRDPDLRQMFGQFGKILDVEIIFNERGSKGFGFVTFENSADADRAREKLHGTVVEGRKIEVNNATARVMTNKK"}
{"Sequence": "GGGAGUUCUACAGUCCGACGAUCAUGCAGCCUUUUCAUUCUUGCCAUUAGGAAAUCUGUGGACUUCUAGCCUGUGUUUUAAACCAGCCAUGUUUCCUUGUAUAUUUCCCUACCCGCUGCCCCACAUACCCAGCUGGAAUUCUCGGGUGCCAA", "RBNS enrichment (R)": 0.871}
{"Sequence": "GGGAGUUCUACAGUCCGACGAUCAAUGCCCACUGCCUGUAACAGCCACCUGGAGAACUUCAUAAAGAUGUCUCACAGCCCUGGGGACACCUGCCCAGUGGGCCCCAGCCCUACAGGGACUGGGCAAAGAUGAUUGGAAUUCUCGGGUGCCAA", "RBNS enrichment (R)": 0.484}
{"Sequence": "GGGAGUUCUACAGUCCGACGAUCAGGUUUUGGAUGUGAAAAAGAGUUUCCAAAAGAAUGGUGUCUGGGAGUUUGAAUGUGAUGAUUAAAAAAAGAGCCAAGGAAAAAGGUAGCUAGAAAAAAAGGUUGGCUCUUGGAAUUCUCGGGUGCCAA", "RBNS enrichment (R)": 13.8}
{"Sequence": "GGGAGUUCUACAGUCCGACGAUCAGUUUCAGUGUUAGAUACAGUUUUUUCCACCAUACAUCUGUGCAUUUUCUCUUUAGGUGACUGUUUAAGAAAUUUGUGUGCAUAGUUACUCAGUUUUUAUGAACUGUUGUUGGAAUUCUCGGGUGCCAA", "RBNS enrichment (R)": 1.47}
{"Sequence": "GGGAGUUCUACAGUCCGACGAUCGGCUGUUAACCCAGUCACUCCACCUUUGACACAUUACUAGUAACAAGAGGGGACCACAUAGUCUCUGUUGGCAUUUCUUUGUGGUGUCUGUCUGGACAUGCUUCCUAAAAUGGAAUUCUCGGGUGCCAA", "RBNS enrichment (R)": 0.325}
{"Sequence": "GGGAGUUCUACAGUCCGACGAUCUCAUCUAGGUUCUGAAUUACAGAAACCAACCAACCAAAAUUCUACCUUCAUUCUACAUAGACAUCAUUGGUUUUGGAGUUUAAAAAAAAAAGUCACCUUUUUGCUGAUGAUGGAAUUCUCGGGUGCCAA", "RBNS enrichment (R)": 0.379}
{"Sequence": "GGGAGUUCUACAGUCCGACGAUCAGCCUAGGAGCAGCUGCAAUUGCACCUGAGGGACAGGCCCUAGAGUUUGGUGGCCCAAGUCCUGAACCCCUCUUAGACCAGGUGAGGUGCAGAGGUGGUUGCUGCUUCCAUGGAAUUCUCGGGUGCCAA", "RBNS enrichment (R)": 0.499}
{"Sequence": "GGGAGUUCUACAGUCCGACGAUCUUCAUGAAUCUUUCAUACAUAUAUAUAUUUGUAACAUUGUAAAGUAUGUGAGUAGUCUUAUGUAAAGUAUGUUUUUACAUUAUGCAAAUAAAACCCAAUACUUUUGUCCAUGGAAUUCUCGGGUGCCAA", "RBNS enrichment (R)": 0.653}
{"Sequence": "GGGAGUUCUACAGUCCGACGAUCGGAUUAAUCCAGGCAAAAGAAGAGACUUUAUCAGAGAGUGGAGUGAAGCAUUGUGGGUACUACCCGUGUCCCAUGUUCACAGUAACAAAUUCACAUGCAGGAUUUACUUUUGGAAUUCUCGGGUGCCAA", "RBNS enrichment (R)": 0.356}
{"Sequence": "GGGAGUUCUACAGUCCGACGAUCCCCGUCUCCCAGGGCAUUUCCCCCUCCCGUGCACAGCCAUUGGUGGCAAAUCCUUCUGCCAUCAGCUGUGUGGGCUUGCCUCUUUGAGCUCAUCUCCCCUCACAGGCUGUUGGAAUUCUCGGGUGCCAA", "RBNS enrichment (R)": 0.381}
{"Sequence": "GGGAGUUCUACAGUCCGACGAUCAAUGGUUUUUUCACUGCCUGACCUUUAAAAGGCCAUCGAUAUUCUUUGCUCUUGCCAAAAUUGCACUAUUAUAGGACUUGUAUUGUUAUUUAAAUUACUGGAUUCUAAGGUGGAAUUCUCGGGUGCCAA", "RBNS enrichment (R)": 1.68}
{"Sequence": "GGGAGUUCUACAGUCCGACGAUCCCCUCCCUGCCCCAACUCUGACUUCGAAUAAGCCUUGGUCCUAUCCAGAAUACACUGGACACCAAGGCCAAGGACGUUCACGUUCUGCCCUCGCUGGGUCCAGCUGACUCUGGAAUUCUCGGGUGCCAA", "RBNS enrichment (R)": 0.482}
{"data": "Block 3", "target": "Sal-like protein 4, full length isoform B (SALL4, Homo sapiens, UniProt Q9UJQ4-2, residues 1-616)", "technique": "universal PBM", "form": "double-stranded DNA, one strand shown", "medium": "in vitro", "tested at": "not given", "notes": "8-mer, flanks averaged, mean of replicates", "direction": "higher = stronger binding", "Construct (chain)": "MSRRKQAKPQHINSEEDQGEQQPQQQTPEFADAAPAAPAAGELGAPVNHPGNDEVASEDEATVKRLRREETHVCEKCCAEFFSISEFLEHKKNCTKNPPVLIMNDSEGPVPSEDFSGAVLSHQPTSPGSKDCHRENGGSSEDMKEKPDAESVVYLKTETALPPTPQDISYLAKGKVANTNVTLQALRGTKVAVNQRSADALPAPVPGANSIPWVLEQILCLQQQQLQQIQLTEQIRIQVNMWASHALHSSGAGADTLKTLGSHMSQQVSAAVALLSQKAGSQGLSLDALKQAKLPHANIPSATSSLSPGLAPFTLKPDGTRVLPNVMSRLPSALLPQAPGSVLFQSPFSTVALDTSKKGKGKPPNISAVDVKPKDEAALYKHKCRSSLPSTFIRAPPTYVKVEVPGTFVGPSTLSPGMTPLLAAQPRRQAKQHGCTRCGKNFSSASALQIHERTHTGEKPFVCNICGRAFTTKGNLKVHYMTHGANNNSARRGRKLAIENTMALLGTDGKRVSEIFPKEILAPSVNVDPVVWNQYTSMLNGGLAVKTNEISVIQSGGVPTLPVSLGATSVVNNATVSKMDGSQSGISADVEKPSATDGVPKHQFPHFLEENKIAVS"}
{"Sequence": "ACGTTCCA", "E-score": -0.00994}
{"Sequence": "ACTCTTAA", "E-score": 0.177}
{"Sequence": "CCGTCTAG", "E-score": -0.228}
{"Sequence": "CAACTTCA", "E-score": 0.0148}
{"Sequence": "GTAACGCA", "E-score": 0.0479}
{"Sequence": "GGTAAAGA", "E-score": 0.136}
{"Sequence": "CGGTGCTA", "E-score": -0.149}
{"Sequence": "CAGATGCC", "E-score": -0.172}
{"Sequence": "GTTGACTA", "E-score": 0.0393}
{"Sequence": "GAAAATTA", "E-score": 0.336}
{"data": "Further values, each from its own experiment"}
{"Molecule": "PhoQ, residues 284 288 289 292 302 303 QWQEDG", "target": "PhoP, residues 12 14 15 18 19 QQAYL (Escherichia coli, UniProt P23836)", "test": "Sort-seq, measured: YFP reporter", "system": "E. coli", "setting": "PhoQ-PhoP variant library, together with: 10 µM Mg2+", "how to read": "baseline: high Mg2+ state, higher = stronger signaling", "quantity": "fold induction", "value": 18.3}
{"note": "For quick reference, copied from above (block 2):"}
{"Sequence": "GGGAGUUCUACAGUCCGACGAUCAAUGCCCACUGCCUGUAACAGCCACCUGGAGAACUUCAUAAAGAUGUCUCACAGCCCUGGGGACACCUGCCCAGUGGGCCCCAGCCCUACAGGGACUGGGCAAAGAUGAUUGGAAUUCUCGGGUGCCAA", "RBNS enrichment (R)": 0.484}
{"Sequence": "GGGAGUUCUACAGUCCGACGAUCCCCUCCCUGCCCCAACUCUGACUUCGAAUAAGCCUUGGUCCUAUCCAGAAUACACUGGACACCAAGGCCAAGGACGUUCACGUUCUGCCCUCGCUGGGUCCAGCUGACUCUGGAAUUCUCGGGUGCCAA", "RBNS enrichment (R)": 0.482}
{"Sequence": "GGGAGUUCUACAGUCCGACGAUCAGUUUCAGUGUUAGAUACAGUUUUUUCCACCAUACAUCUGUGCAUUUUCUCUUUAGGUGACUGUUUAAGAAAUUUGUGUGCAUAGUUACUCAGUUUUUAUGAACUGUUGUUGGAAUUCUCGGGUGCCAA", "RBNS enrichment (R)": 1.47}
{"Sequence": "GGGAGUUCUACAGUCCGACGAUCAUGCAGCCUUUUCAUUCUUGCCAUUAGGAAAUCUGUGGACUUCUAGCCUGUGUUUUAAACCAGCCAUGUUUCCUUGUAUAUUUCCCUACCCGCUGCCCCACAUACCCAGCUGGAAUUCUCGGGUGCCAA", "RBNS enrichment (R)": 0.871}
